{"data": "Measurements collected from several papers", "note": "Every numbered part comes from another study and shows a few of its results, in no order. Values joined by “and” are separate records of one study, mostly repeats; a detail may differ.", "chain of UniProt P11309 (whole entry, looked up)": "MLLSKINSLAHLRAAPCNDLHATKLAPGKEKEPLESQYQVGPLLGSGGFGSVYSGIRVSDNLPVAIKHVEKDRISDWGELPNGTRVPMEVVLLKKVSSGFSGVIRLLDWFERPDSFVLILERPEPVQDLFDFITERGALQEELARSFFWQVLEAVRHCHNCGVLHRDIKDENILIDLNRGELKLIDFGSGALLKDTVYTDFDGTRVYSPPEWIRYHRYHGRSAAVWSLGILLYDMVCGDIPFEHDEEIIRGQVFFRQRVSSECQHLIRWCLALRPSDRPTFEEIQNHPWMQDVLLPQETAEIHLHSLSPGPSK", "chain of UniProt Q9P289 (whole entry, looked up)": "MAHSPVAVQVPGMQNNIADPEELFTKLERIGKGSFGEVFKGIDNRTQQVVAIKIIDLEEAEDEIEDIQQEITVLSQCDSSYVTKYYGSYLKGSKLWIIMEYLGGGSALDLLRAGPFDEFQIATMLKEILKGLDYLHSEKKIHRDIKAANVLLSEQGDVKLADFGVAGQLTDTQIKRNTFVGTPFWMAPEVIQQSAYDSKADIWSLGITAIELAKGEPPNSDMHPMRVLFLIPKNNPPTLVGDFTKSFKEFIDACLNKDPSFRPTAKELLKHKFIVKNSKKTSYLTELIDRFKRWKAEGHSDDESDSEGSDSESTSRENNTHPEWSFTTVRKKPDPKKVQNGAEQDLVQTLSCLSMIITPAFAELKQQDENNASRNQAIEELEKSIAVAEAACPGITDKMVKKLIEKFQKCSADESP", "chain of UniProt P21802 (whole entry, looked up)": "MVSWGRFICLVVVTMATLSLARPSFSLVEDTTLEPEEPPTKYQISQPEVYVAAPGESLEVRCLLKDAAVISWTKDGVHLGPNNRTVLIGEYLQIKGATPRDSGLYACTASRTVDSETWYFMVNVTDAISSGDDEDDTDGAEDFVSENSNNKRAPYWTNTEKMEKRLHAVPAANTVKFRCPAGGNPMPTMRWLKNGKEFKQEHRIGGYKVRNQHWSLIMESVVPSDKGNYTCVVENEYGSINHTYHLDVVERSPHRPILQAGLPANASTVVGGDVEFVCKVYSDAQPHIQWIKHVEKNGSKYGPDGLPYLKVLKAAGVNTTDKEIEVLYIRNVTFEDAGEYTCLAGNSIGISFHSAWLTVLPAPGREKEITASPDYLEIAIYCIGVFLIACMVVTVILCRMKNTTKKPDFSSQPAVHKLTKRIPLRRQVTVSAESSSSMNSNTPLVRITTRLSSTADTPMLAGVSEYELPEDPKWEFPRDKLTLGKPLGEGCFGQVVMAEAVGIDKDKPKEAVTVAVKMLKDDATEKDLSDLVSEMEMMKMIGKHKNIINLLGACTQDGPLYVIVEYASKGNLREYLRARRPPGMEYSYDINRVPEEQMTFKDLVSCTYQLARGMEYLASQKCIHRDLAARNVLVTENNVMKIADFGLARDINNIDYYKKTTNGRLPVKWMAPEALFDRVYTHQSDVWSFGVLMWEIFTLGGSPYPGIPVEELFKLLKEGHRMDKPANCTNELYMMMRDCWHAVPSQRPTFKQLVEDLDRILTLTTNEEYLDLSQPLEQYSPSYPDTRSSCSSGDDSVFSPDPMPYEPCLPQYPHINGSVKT", "chain of UniProt P41240 (whole entry, looked up)": "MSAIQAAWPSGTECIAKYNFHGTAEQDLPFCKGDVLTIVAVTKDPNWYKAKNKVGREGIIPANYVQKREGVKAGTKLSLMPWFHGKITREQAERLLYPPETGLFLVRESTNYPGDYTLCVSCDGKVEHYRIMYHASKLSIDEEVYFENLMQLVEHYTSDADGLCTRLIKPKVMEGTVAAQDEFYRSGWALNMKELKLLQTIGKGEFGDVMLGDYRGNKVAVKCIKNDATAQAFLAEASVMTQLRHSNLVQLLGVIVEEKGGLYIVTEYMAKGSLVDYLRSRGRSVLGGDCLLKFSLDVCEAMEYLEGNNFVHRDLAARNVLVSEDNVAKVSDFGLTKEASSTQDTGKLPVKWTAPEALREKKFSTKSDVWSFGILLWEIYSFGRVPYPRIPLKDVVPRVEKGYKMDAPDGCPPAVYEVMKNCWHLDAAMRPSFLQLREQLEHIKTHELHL", "chain of UniProt P32298 (whole entry, looked up)": "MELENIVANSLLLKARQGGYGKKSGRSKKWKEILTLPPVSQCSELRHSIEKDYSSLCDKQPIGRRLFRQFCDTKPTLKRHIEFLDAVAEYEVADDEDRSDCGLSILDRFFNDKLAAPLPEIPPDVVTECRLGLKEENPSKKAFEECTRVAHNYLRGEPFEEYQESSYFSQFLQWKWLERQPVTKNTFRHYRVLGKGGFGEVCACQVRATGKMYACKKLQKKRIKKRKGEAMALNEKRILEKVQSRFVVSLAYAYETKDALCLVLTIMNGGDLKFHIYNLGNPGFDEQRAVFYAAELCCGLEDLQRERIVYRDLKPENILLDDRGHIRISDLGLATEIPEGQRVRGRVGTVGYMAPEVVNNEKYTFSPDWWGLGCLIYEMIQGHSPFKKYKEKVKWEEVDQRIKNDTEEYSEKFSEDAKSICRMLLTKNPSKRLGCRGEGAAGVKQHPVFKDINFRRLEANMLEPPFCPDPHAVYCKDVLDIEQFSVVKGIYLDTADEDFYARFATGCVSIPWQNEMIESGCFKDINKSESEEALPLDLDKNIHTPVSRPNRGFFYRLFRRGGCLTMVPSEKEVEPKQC"}
{"data": "Sample 1", "SMILES": "CC(C)(C)NC(=O)c1ccc(OC/C(=C/F)CN)cc1", "target": "Myeloperoxidase (MPO, Homo sapiens, UniProt P05164)", "effect on": "enzyme activity", "action": "inhibitor", "method": "fluorescence", "chain of UniProt P05164 (whole entry, looked up)": "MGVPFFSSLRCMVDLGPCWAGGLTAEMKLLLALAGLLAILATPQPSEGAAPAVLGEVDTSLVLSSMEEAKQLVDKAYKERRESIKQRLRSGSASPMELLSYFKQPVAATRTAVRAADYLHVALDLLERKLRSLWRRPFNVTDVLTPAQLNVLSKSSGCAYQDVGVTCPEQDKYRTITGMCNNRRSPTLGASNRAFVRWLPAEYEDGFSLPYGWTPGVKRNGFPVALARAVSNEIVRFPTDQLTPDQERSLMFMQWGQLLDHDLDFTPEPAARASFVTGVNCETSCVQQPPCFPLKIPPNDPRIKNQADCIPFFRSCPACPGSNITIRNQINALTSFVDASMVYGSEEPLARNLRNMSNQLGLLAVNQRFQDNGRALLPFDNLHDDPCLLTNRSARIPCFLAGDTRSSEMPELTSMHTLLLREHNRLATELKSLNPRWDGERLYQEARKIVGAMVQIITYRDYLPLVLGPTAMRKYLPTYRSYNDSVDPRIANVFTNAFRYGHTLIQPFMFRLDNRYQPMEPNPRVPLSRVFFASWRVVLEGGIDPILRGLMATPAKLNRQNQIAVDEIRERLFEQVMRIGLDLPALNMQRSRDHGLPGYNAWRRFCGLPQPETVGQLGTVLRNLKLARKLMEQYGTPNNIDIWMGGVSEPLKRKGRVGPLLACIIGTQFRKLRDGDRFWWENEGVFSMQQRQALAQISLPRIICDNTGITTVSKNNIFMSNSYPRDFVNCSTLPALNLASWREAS"}
{"tested at": "1.111 µM", "inhibition": "-11.3% and -10% and -8.81%"}
{"tested at": "41.2 nM", "inhibition": "-9.85% and -17% and -8.13%"}
{"tested at": "10 µM", "inhibition": "-14.3% and -16.2% and -12.7%"}
{"data": "Sample 2", "Compound": "O=C(Nc1ccccc1)Nc1cccc(Oc2ccc3nccn3n2)c1", "effect on": "binding", "tested at": "1 µM"}
{"target": "PIK3C2B (Homo sapiens, UniProt O00750)", "remaining binding [%]": 100}
{"target": "FGFR2 (Homo sapiens, UniProt P21802)", "method": "competition with immobilised ligand", "remaining binding [%]": 91}
{"target": "NTRK1 (Homo sapiens, UniProt P04629)", "method": "competition with immobilised ligand", "remaining binding [%]": 100}
{"target": "STK26 (Homo sapiens, UniProt Q9P289)", "method": "competition with immobilised ligand", "remaining binding [%]": 100}
{"target": "HIPK3 (Homo sapiens, UniProt Q9H422)", "method": "competition with immobilised ligand", "remaining binding [%]": 100}
{"target": "BMPR2 (Homo sapiens, UniProt Q13873)", "remaining binding [%]": 100}
{"target": "TAOK2 (Homo sapiens, UniProt Q9UL54)", "method": "competition with immobilised ligand", "remaining binding [%]": 100}
{"target": "Ribosomal protein S6 kinase alpha-1, N-terminal kinase domain (RPS6KA1, Homo sapiens, UniProt Q15418)", "method": "competition with immobilised ligand", "remaining binding [%]": 100}
{"target": "EPHA3 (Homo sapiens, UniProt P29320)", "method": "competition with immobilised ligand", "remaining binding [%]": 66}
{"target": "TIE1 (Homo sapiens, UniProt P35590)", "method": "competition with immobilised ligand", "remaining binding [%]": 100}
{"target": "TNNI3K (Homo sapiens, UniProt Q59H18)", "method": "competition with immobilised ligand", "remaining binding [%]": 100}
{"target": "ABL2 (Homo sapiens, UniProt P42684)", "method": "competition with immobilised ligand", "remaining binding [%]": 69}
{"target": "EGFR (Homo sapiens, UniProt P00533, G719C)", "remaining binding [%]": 78}
{"target": "TYRO3 (Homo sapiens, UniProt Q06418)", "remaining binding [%]": 89}
{"target": "MAP4K2 (Homo sapiens, UniProt Q12851)", "method": "competition with immobilised ligand", "remaining binding [%]": 100}
{"target": "NEK2 (Homo sapiens, UniProt P51955)", "method": "competition with immobilised ligand", "remaining binding [%]": 100}
{"target": "PNCK (Homo sapiens, UniProt Q6P2M8)", "remaining binding [%]": 100}
{"target": "PIM1 (Homo sapiens, UniProt P11309)", "remaining binding [%]": 100}
{"target": "GRK4 (Homo sapiens, UniProt P32298)", "remaining binding [%]": 77}
{"target": "DAPK1 (Homo sapiens, UniProt P53355)", "remaining binding [%]": 90}
{"target": "Myosin-IIIb (MYO3B, Homo sapiens, UniProt Q8WXR4)", "method": "competition with immobilised ligand", "remaining binding [%]": 100}
{"target": "STK33 (Homo sapiens, UniProt Q9BYT3)", "method": "competition with immobilised ligand", "remaining binding [%]": 99}
{"data": "Sample 3", "Structure (SMILES)": "CC[C@@]1(c2ccccc2)C2=C(CC(C)(C)CC2=O)Nc2n[nH]cc21", "tested at": "1 µM"}
{"target": "CDK3 (Homo sapiens, UniProt Q00526)", "effect on": "kinase binding", "method": "KINOMEscan", "baseline": "DMSO control", "remaining binding [%]": 99}
{"target": "PIM1 (Homo sapiens, UniProt P11309)", "effect on": "binding", "method": "competition with immobilised ligand", "remaining binding [%]": 100}
{"target": "Aurora kinase A (AURKA, Homo sapiens, UniProt O14965)", "effect on": "kinase binding", "method": "KINOMEscan", "baseline": "DMSO control", "remaining binding [%]": 100}
{"target": "CSK (Homo sapiens, UniProt P41240)", "effect on": "binding", "method": "competition with immobilised ligand", "remaining binding [%]": 100}
{"target": "SRC (Homo sapiens, UniProt P12931)", "effect on": "binding", "method": "competition with immobilised ligand", "remaining binding [%]": 100}
{"target": "FGFR2 (Homo sapiens, UniProt P21802)", "effect on": "kinase binding", "method": "KINOMEscan", "baseline": "DMSO control", "remaining binding [%]": 100}
{"target": "MKNK2 (Homo sapiens, UniProt Q9HBH9)", "effect on": "binding", "method": "competition with immobilised ligand", "remaining binding [%]": 100}
{"target": "ERBB3 (Homo sapiens, UniProt P21860)", "effect on": "binding", "method": "competition with immobilised ligand", "remaining binding [%]": 100}
{"target": "EGFR (Homo sapiens, UniProt P00533, T790M)", "effect on": "kinase binding", "method": "KINOMEscan", "baseline": "DMSO control", "remaining binding [%]": 100}
{"target": "IRAK3 (Homo sapiens, UniProt Q9Y616)", "effect on": "kinase binding", "method": "KINOMEscan", "baseline": "DMSO control", "remaining binding [%]": 96}
{"target": "NEK1 (Homo sapiens, UniProt Q96PY6)", "effect on": "kinase binding", "method": "KINOMEscan", "baseline": "DMSO control", "remaining binding [%]": 85}
{"target": "CDK2 (Homo sapiens, UniProt P24941)", "effect on": "kinase binding", "method": "KINOMEscan", "baseline": "DMSO control", "remaining binding [%]": 91}
{"target": "IKBKB (Homo sapiens, UniProt O14920)", "effect on": "kinase binding", "method": "KINOMEscan", "baseline": "DMSO control", "remaining binding [%]": 100}
{"target": "STK26 (Homo sapiens, UniProt Q9P289)", "effect on": "kinase binding", "method": "KINOMEscan", "baseline": "DMSO control", "remaining binding [%]": 100}
{"target": "CDK8 (Homo sapiens, UniProt P49336)", "effect on": "binding", "method": "competition with immobilised ligand", "remaining binding [%]": 100}
{"target": "PRKACB (Homo sapiens, UniProt P22694)", "effect on": "binding", "method": "competition with immobilised ligand", "remaining binding [%]": 100}
{"target": "PRKAA2 (Homo sapiens, UniProt P54646)", "effect on": "kinase binding", "method": "KINOMEscan", "baseline": "DMSO control", "remaining binding [%]": 91}
{"target": "ALK (Homo sapiens, UniProt Q9UM73)", "effect on": "binding", "method": "competition with immobilised ligand", "remaining binding [%]": 79}
{"data": "Sample 4", "SMILES": "C[C@@H]1CN(c2ccc(-c3cc(C(=O)NCCOCCOCCOCCOCCNC(=O)/C=C/c4[nH]cc(C(=O)N[C@@H](CC(N)=O)c5ccc(F)c(Cl)c5)c4-c4ccc(Cl)cc4F)ccc3F)cc2NC(=O)c2c[nH]c(=O)cc2C(F)(F)F)C[C@H](C)N1C", "effect on": "thermal unfolding", "method": "differential scanning fluorimetry", "tested at": "5.5 µM", "direction": "higher = more unfolded", "WDR5": "WD repeat-containing protein 5 (WDR5, Homo sapiens, UniProt P61964)", "DCAF1": "DDB1- and CUL4-associated factor 1 (DCAF1, Homo sapiens, UniProt Q9Y4B6)", "chain of UniProt Q9Y4B6 (whole entry, looked up)": "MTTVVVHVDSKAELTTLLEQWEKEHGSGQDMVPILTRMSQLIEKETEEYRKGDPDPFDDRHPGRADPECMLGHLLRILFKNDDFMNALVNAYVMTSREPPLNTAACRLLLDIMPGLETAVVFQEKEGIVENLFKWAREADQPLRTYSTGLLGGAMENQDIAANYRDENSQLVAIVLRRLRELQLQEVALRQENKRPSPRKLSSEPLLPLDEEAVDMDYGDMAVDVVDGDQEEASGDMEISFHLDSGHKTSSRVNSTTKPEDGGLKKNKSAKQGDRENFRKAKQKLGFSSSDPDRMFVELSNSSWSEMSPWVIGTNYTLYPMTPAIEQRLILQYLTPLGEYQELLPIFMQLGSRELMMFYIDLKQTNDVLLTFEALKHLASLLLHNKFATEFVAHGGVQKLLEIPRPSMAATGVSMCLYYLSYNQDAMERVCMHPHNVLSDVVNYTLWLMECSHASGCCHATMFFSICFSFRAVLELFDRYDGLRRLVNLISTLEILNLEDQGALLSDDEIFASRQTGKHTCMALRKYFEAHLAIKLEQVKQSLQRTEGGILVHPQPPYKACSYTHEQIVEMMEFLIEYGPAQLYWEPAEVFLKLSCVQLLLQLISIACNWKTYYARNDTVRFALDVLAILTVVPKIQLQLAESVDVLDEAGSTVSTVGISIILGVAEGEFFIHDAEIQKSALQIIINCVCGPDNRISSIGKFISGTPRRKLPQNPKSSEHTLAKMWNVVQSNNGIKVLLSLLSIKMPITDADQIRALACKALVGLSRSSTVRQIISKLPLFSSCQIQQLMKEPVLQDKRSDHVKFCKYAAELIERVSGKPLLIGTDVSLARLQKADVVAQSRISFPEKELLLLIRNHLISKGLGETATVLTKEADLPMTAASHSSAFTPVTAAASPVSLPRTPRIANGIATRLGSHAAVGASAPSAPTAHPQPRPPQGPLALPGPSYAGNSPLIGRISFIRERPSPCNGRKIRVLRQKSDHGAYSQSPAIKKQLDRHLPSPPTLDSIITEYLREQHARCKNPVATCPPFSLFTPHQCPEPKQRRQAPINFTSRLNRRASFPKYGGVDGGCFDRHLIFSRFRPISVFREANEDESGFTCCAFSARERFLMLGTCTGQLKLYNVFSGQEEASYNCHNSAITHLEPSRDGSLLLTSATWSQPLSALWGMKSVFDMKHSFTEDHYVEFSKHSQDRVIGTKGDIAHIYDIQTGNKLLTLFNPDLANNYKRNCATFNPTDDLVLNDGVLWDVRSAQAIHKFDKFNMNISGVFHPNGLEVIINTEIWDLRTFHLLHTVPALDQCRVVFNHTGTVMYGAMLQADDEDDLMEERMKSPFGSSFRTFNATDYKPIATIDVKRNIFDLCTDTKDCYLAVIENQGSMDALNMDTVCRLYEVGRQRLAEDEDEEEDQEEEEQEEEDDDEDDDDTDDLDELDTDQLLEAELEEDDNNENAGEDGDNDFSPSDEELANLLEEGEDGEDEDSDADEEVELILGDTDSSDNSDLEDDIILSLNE"}
{"target": "WDR5", "temperature": "87.81 °C", "SYPRO Orange fluorescence [a.u.]": 53400}
{"target": "WDR5", "temperature": "70.01 °C", "SYPRO Orange fluorescence [a.u.]": 16100}
{"target": "WDR5", "temperature": "39.4 °C", "SYPRO Orange fluorescence [a.u.]": 14000}
{"target": "WDR5", "temperature": "86.81 °C", "SYPRO Orange fluorescence [a.u.]": 53700}
{"target": "WDR5", "temperature": "92.41 °C", "SYPRO Orange fluorescence [a.u.]": 48100}
{"target": "WDR5", "temperature": "35.4 °C", "SYPRO Orange fluorescence [a.u.]": 13300}
{"target": "DCAF1", "temperature": "29.2 °C", "SYPRO Orange fluorescence [a.u.]": 9370}
{"target": "DCAF1", "temperature": "55.21 °C", "SYPRO Orange fluorescence [a.u.]": 21900}
{"note": "A few entries again (sample 3):"}
{"target": "CDK2 (Homo sapiens, UniProt P24941)", "effect on": "kinase binding", "method": "KINOMEscan", "baseline": "DMSO control", "remaining binding [%]": 91}
{"target": "MKNK2 (Homo sapiens, UniProt Q9HBH9)", "effect on": "binding", "method": "competition with immobilised ligand", "remaining binding [%]": 100}
{"target": "EGFR (Homo sapiens, UniProt P00533, T790M)", "effect on": "kinase binding", "method": "KINOMEscan", "baseline": "DMSO control", "remaining binding [%]": 100}
{"target": "ERBB3 (Homo sapiens, UniProt P21860)", "effect on": "binding", "method": "competition with immobilised ligand", "remaining binding [%]": 100}
